Measured values gathered from unrelated publications.
Compare with care: the assays were run in different laboratories.

SMILES | organism | test | test system | conditions | MIC
C[C@@H]1C(=O)O[C@@H](C)/C=C/C=C\[C@@H](C)[C@@H]2C=C[C@@H]3C[C@@]4(C)O[C@H]4[C@@H](C)[C@H]3[C@@H]2C(=O)C(Cl)(Cl)C1=O | Staphylococcus aureus |  | MRSA clinical isolate | resistant: OXA,CLI,ERY,MXF | 0.05 µg/mL
COc1cccc(OC)c1C(=O)N[C@@H]1C(=O)N2[C@@H]1SC(C)(C)[C@@H]2C(=O)O | Listeria monocytogenes |  | 1.108, glucose peptone yeast broth | 18 to 20 h, 37 °C | 2 µM
CC1(C)[C@H](NC(=O)/C(=N\OC2(C(=O)O)CCCCC2)c2csc(N)n2)C(=O)N1OS(=O)(=O)O | Enterobacter aerogenes | agar dilution | ATCC 13048, susceptible |  | 4 µg/mL
COc1ccc(NC(=O)COc2cccc(OCC(C)C)c2)cc1 | Lodderomyces parapsilosis | microbial growth, broth dilution | ATCC22019 |  | 2 µg/mL
CC1(C)[C@H](NC(=O)/C(=N\OCc2c(Cl)cccc2Cl)c2csc(N)n2)C(=O)N1OS(=O)(=O)O | Enterobacter aerogenes | agar dilution | ATCC 13048, susceptible |  | 2 µg/mL
CC[C@H](C)[C@H](NC(=O)[C@H](CCCNC(=N)N)NC(=O)[C@H](CC(=O)O)NC(=O)[C@H](CCCNC(=N)N)NC(=O)[C@H](CC(C)C)NC(=O)[C@H](CC(N)=O)NC(=O)[C@H](CCCNC(=N)N)NC(=O)[C@@H](N)Cc1ccccc1)C(=O)N[C@@H](CCCCN)C(=O)N[C@@H](CC(N)=O)C(=O)N[C@@H](CCCCN)C(=O)N[C@@H](Cc1ccccc1)C(=O)N[C@@H](CCC(=O)O)C(=O)N[C@@H](CC(N)=O)C(=O)N[C@@H](C)C(=O)N[C@@H](CC(C)C)C(=O)N[C@@H](CCCCN)C(=O)N[C@@H](CC(N)=O)C(=O)N[C@H](C(=O)N[C@H](C(=O)N[C@@H](CC(N)=O)C(=O)N[C@@H](CCCCN)C(=O)N[C@@H](CC(C)C)C(=O)N[C@@H](Cc1ccccc1)C(=O)N1CCC[C@H]1C(=O)O)[C@@H](C)CC)C(C)C | Bordetella bronchiseptica | broth microdilution | ATCC 10580 | 16 h, 37 °C, cation-adjusted Mueller-Hinton broth | 64 µg/mL
CN[C@H](CC(C)C)C(=O)N[C@H]1C(=O)N[C@@H](CC(N)=O)C(=O)N[C@H]2C(=O)N[C@H]3C(=O)N[C@H](C(=O)N[C@H](C(=O)O)c4cc(O)cc(O)c4-c4cc3ccc4O)[C@H](O)c3ccc(c(Cl)c3)Oc3cc2cc(c3O[C@@H]2O[C@H](CO)[C@@H](O)[C@H](O)[C@H]2O[C@H]2C[C@](C)(N)[C@H](O)[C@H](C)O2)Oc2ccc(cc2Cl)[C@H]1O | Listeria monocytogenes |  | 1.108, glucose peptone yeast broth | 18 to 20 h, 37 °C | < 1 µM
C#CCNC(=O)C(C)(C)O/N=C(\C(=O)N[C@@H]1C(=O)N(S(=O)(=O)O)[C@H]1C)c1csc(N)n1 | Enterobacter aerogenes | agar dilution | ATCC 13048 susceptible |  | 8 µg/mL
CC[C@H](C)[C@H](NC(=O)[C@H](CCC(N)=O)NC(=O)[C@H](Cc1ccccc1)NC(=O)[C@H](CC(N)=O)NC(=O)[C@H](CCCCN)NC(=O)[C@H](CC(C)C)NC(=O)[C@H](CCCNC(=N)N)NC(=O)[C@H](CCCCN)NC(=O)[C@H](CCCCN)NC(=O)[C@@H](NC(=O)[C@H](CO)NC(=O)[C@H](CCCCN)NC(=O)CNC(=O)[C@H](CC(C)C)NC(=O)[C@H](CCCCN)NC(=O)[C@H](CCCCN)NC(=O)[C@H](CC(C)C)NC(=O)[C@H](CCCCN)NC(=O)[C@H](CCCCN)NC(=O)[C@H](CCCNC(=N)N)NC(=O)[C@H](CC(C)C)NC(=O)CNC(=O)[C@@H](N)CCCNC(=N)N)[C@@H](C)CC)C(=O)NCC(=O)N[C@@H](Cc1ccccc1)C(=O)N[C@@H](CO)C(=O)N[C@H](C(=O)N1CCC[C@H]1C(=O)N[C@@H](Cc1ccccc1)C(=O)N[C@@H](C)C(=O)NCC(=O)O)C(C)C | Bordetella bronchiseptica | broth microdilution | ATCC 10580 | 16 h, 37 °C, cation-adjusted Mueller-Hinton broth | 4 µg/mL
CC1(C)[C@H](NC(=O)/C(=N\OCC(=O)N2CCC[C@@H]2C(=O)O)c2nsc(N)n2)C(=O)N1OS(=O)(=O)O | Enterobacter aerogenes | agar dilution | ATCC 13048, susceptible |  | 1 µg/mL
CC1C=CC=CC(C)C2C=CC3CC(C)(O)C(Cl)C(C)C3C2C(=O)C(Cl)(Cl)C(=O)C(C)C(=O)O1 (stereo not drawn) | Staphylococcus aureus |  | MSSA clinical isolate | resistant PEN/CLI/SXT/TET | 0.1 µg/mL
CO[C@H]1/C=C/O[C@@]2(C)Oc3c(C)c(O)c4c(c3C2=O)C2=NC3(CCN(CC(C)C)CC3)NC2=C(NC(=O)/C(C)=C\C=C\[C@H](C)[C@H](O)[C@@H](C)[C@@H](O)[C@@H](C)[C@H](OC(=O)c2cccc(F)c2)[C@@H]1C)C4=O | Mycobacteroides abscessus subsp. abscessus |  | K21 clinical isolate | 90% growth inhibition | 0.102 µM
